Experimental data from different studies.
Each numbered part is a random draw from the data of one study; scales do not carry over between parts.

Block 1 — technique: universal PBM; molecule type: double-stranded DNA, one strand shown; medium: in vitro; tested at: not given; direction: higher = stronger binding
Target: Sal-like protein 4, full length isoform B (SALL4, Homo sapiens, UniProt Q9UJQ4-2, residues 1-616)
Notes: 8-mer, flanks averaged, mean of replicates
Oligonucleotide | E-score
AAGCTTAT | 0.133
GCCAAGGA | -0.121
ACTAATAA | 0.379
CGTCTAAC | 0.00593

Block 2 — technique: protein-binding microarray; molecule type: double-stranded DNA, one strand shown; medium: in vitro; tested at: 250 nM; notes: 60-bp whole probe; together with: salmon DNA 0.4 mg/ml; baseline: random background probes; direction: higher = stronger binding
Target: Interferon regulatory factor 7, full length, phosphomimetic (IRF7, Homo sapiens, UniProt Q92985, residues 1-503, S101K/S471D/S472D/S475D/S476D/S477D/S483D/S484D/S487D)
Construct (chain): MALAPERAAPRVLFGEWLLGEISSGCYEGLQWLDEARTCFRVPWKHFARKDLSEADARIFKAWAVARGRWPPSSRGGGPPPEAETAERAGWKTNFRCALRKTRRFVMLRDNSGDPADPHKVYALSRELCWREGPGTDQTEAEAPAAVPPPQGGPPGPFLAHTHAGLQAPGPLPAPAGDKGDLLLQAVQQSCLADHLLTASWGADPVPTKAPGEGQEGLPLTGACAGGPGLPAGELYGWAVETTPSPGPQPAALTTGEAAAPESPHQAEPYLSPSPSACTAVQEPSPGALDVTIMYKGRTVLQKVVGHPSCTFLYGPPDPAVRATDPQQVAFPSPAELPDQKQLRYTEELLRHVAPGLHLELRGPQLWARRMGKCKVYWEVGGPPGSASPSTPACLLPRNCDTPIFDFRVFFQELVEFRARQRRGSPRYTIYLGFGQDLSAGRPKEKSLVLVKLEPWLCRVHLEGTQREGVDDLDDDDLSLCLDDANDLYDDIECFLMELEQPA
Oligonucleotide | log fluorescence
GCCTAGCACGACGGTCTCGGTATCAGGACGTGCTAGGTCTTGATTCGCTTGACGCTGCTG | 1.41 z-score
GCCTAGCACGACGATTTCAGTCTCAAGACGTGCTAGGTCTTGATTCGCTTGACGCTGCTG | 0.179 z-score
GCCTAGCACGACGAACTGAGCTTCGAGACGTGCTAGGTCTTGATTCGCTTGACGCTGCTG | -0.142 z-score

Other studies, line by line
KAT6A winged helix 1, GST fusion: Histone acetyltransferase KAT6A, winged helix 1, GST fusion (KAT6A, Homo sapiens, UniProt Q92794, residues 1-85)
Molecule | target | assay | system | conditions | scale | endpoint | value
AGTTCGAC | KAT6A winged helix 1, GST fusion | protein binding microarray | double-stranded DNA, one strand shown, in vitro | not given, 8-mer, flanks averaged, mean of 2 arrays, mostly near background | baseline: not given, higher = stronger binding | E-score | -0.105
PhoQ, residues 284 288 289 292 302 303 ALSMDL | PhoP, residues 12 14 15 18 19 LWHVM (Escherichia coli, UniProt P23836) | Sort-seq, item: YFP reporter | E. coli | PhoQ-PhoP variant library, together with: 10 µM Mg2+ | baseline: high Mg2+ state, higher = stronger signaling | fold induction | 8.35
CAAGAGTA | KAT6A winged helix 1, GST fusion | protein binding microarray | double-stranded DNA, one strand shown, in vitro | not given, 8-mer, flanks averaged, mean of 2 arrays, mostly near background | baseline: not given, higher = stronger binding | E-score | -0.216
ATAACAAC | Histone acetyltransferase KAT6A, winged helix 2, GST fusion (KAT6A, Homo sapiens, UniProt Q92794, residues 85-181) | protein binding microarray | double-stranded DNA, one strand shown, in vitro | not given, 8-mer, flanks averaged, mean of 2 arrays, mostly near background | baseline: not given, higher = stronger binding | E-score | -0.0298

Some of these lines once more (block 2):
Oligonucleotide | log fluorescence
GCCTAGCACGACGGTCTCGGTATCAGGACGTGCTAGGTCTTGATTCGCTTGACGCTGCTG | 1.41 z-score
GCCTAGCACGACGATTTCAGTCTCAAGACGTGCTAGGTCTTGATTCGCTTGACGCTGCTG | 0.179 z-score
